Experimental data from different studies.
Lines come from different studies, so protocols differ. “And” joins repeats or separate records; there may be more than shown. ± marks the error that the study gave.

Substance	assay	system	setting	scale	quantity	result
insulin human	item: QSER1 mRNA	EcoHIV-infected mouse, brain	i.p., dose not given	relative to: PBS	fold change	1.05
fengycin	calcein leakage	DOPC/CHOL liposomes	concentration not given, together with: 20 wt% PEG-8000	–	maximum fusion	22 ± 10%
Met-enkephalin-Arg-Phe	antinociception, tail-flick	male ICR-CD1 mice	intracerebroventricular, 50 µg/animal, 45 min	–	maximum possible effect	15.6% and 11.4% and -2.65% and -2.21% and 23.5% and 1.06% and -4.21% and 14.8%
CRQLRKGKFFSEGGSGGTSFEQFWAWLWP	–	peptide, BALB/c nude mice, 786-O xenograft	2.5 mg/kg	relative to: vehicle	relative tumour volume	decreased
GWTLNSAGYLLGPRRIDHLLMIKEMPIARGREEAPGA / YAVDNHRSFNDKHGFT-NH2 (C-amide)	–	Arrb2 flox control mice, DSS colitis	ip, 3 µM, 2% DSS	–	colon length	6.7 cm and 6 cm and 6.1 cm and 5.6 cm and 6.2 cm
polymyxin B	calcein leakage	DOPC/CHOL liposomes	concentration not given, together with: 20 wt% PEG-8000	–	leakage time constant	3 ± 1 min
aspterric acid	hypocotyl length	Arabidopsis thaliana Col-0 seeds	25 µg/mL	–	inhibition	98%
GWTLNSAGYLLGPHAVDNHRSFNDKHGFT-NH2 (C-amide)	–	peptide, female mice, DSS-induced colitis	ip, 3 µM	–	colon length	6.3 cm and 7.5 cm and 6.4 cm and 7 cm and 7.3 cm

Some of these lines once more:
Substance	assay	system	setting	scale	quantity	result
aspterric acid	hypocotyl length	Arabidopsis thaliana Col-0 seeds	25 µg/mL	–	inhibition	98%
